{"data": "Assay results collected from several papers", "note": "Values joined by “and” are separate records of one study, mostly repeats; a detail may differ. ± gives the spread as reported."}
{"SMILES": "O=c1c(Oc2ccccc2)c(C(F)(F)F)oc2c(O)c(O)ccc12", "target": "ROC1-CUL1 with Cdc34~Ub", "assay": "ubiquitin discharge, inhibitor", "quantity": "Ub2 production", "result": "inhibited"}
{"SMILES": "Nc1ncc(-c2cc(-c3cnn(CC(F)(F)F)c3)ncc2F)nc1C(=O)NC1CNCC(F)C1 (stereo not drawn)", "target": "GRK3", "assay": "KINOMEscan", "conditions": "1 µM", "how to read": "relative to: DMSO control", "quantity": "remaining binding", "result": "54%"}
{"SMILES": "CCCCCCc1cccc(C(O)CC(CO)NC(=O)CCCCCCCCCCNC(C)=O)c1 (stereo not drawn)", "target": "ceramide transfer protein (CERT), human", "assay": "cellular CERT activity, HPLC-MS/MS lipidomics", "test system": "HeLa", "conditions": "1 µM, 24 h", "quantity": "SM/ceramide ratio C16", "result": "29 ,1"}
{"SMILES": "O=C(N/N=C/c1ccc2c(ccc[n+]2Cc2ccccc2)c1)N/N=C/c1ccc2c(ccc[n+]2Cc2ccccc2)c1", "target": "myc22 MYC G4-DNA parallel", "assay": "FRET melting", "conditions": "1 µM, K1 buffer, DNA 0.2 µM", "quantity": "ΔTm", "result": "7.9 ± 0.3 °C"}
{"SMILES": "CCC(=O)N(C)c1ccc(Cl)c(Cl)c1", "target": "L-type Ca2+ channel, verapamil site", "assay": "radioligand binding", "conditions": "10 µM", "quantity": "inhibition", "result": "< 10%"}
{"SMILES": "Cc1sc2ncn(CC(=O)N3CCCC3)c(=O)c2c1-c1cccc(Br)c1", "target": "NMDA receptor, mouse", "assay": "single-channel current, outside-out patch", "test system": "cortical neurons", "conditions": "50 µM, with: Ca2+ 1.25 mM", "quantity": "mean open time", "result": "5.8 ± 0.72 ms"}
{"SMILES": "CN1CCCNC(=O)c2cccc(c2)C(=O)NCCCN(C)CCCNc2cccc3c2C(=O)c2cccc(c2C3=O)NCCC1", "target": "double-stranded DNA", "assay": "DNA thermal stabilisation, CD melting", "conditions": "4.5 µM, pH 7.4, with: 1.5 µM DNA, 100 mM KCl", "quantity": "ΔTm", "result": "< 0.5 °C"}
{"SMILES": "O=C(N/N=C/c1cc[n+](CC2CC2)c2ccccc12)c1ccc2ccc(C(=O)N/N=C/c3cc[n+](CC4CC4)c4ccccc34)nc2n1", "target": "myc22 MYC G4-DNA parallel", "assay": "FRET melting", "conditions": "1 µM, K1 buffer, DNA 0.2 µM, with: ds26 10 µM", "quantity": "ΔTm", "result": "22.4 ± 0.9 °C"}
{"SMILES": "C=CC(=O)N1[C@H](c2ccc3c(c2)OCO3)c2[nH]c3ccccc3c2C[C@@H]1C(=O)N1CCN(C)CC1", "target": "human cyclin E1 N112C-3xFLAG:CDK2", "assay": "co-IP with TMT proteomics, refers to: PNN", "conditions": "concentration not given, Q9H307", "how to read": "relative to: wild type DMSO", "quantity": "relative co-enrichment", "result": "137%"}
{"SMILES": "C[n+]1ccc(/C=N/NC(=O)c2cc(C(=O)N/N=C/c3cc[n+](C)cc3)ncn2)cc1", "target": "myc22 MYC G4-DNA parallel", "assay": "FRET melting", "conditions": "1 µM, K1 buffer, DNA 0.2 µM", "quantity": "ΔTm", "result": "1.7 ± 1.4 °C"}
{"SMILES": "Cn1ccc2cc(-n3c(=O)[nH]c4sc5c(c4c3=O)CCCC5)ccc21", "target": "rat central GABAA receptor", "assay": "radioligand binding", "conditions": "10 µM, with: muscimol", "quantity": "inhibition", "result": "1%"}
{"SMILES": "c1ccc(-c2n[nH]cc2-c2ccnc3ccccc23)nc1", "target": "KIC1 (Candida albicans)", "assay": "kinase binding, MIB/MS competition", "test system": "Candida albicans lysate", "conditions": "10 µM", "how to read": "relative to: DMSO", "quantity": "log2 fold change", "result": 0.1}
{"SMILES": "O=C(CCCCCOc1ccc2ccccc2c1)N[C@@H](CO)C[C@@H](O)c1ccc(-c2ccccc2)cc1", "target": "ceramide transfer protein (CERT), human", "assay": "cellular CERT activity, HPLC-MS/MS lipidomics", "test system": "HeLa", "conditions": "1 µM, 24 h", "quantity": "SM/ceramide ratio Total", "result": "14 ,0"}
{"SMILES": "C=CC(=O)Nc1cccc(Cn2ncc3cnc(Nc4cnn(CCOC)c4)nc32)c1", "target": "ARK5 human", "assay": "binding, KINOMEscan", "conditions": "100 nM", "how to read": "lower = stronger binding", "quantity": "percent of control", "result": "37%"}
{"SMILES": "CCCCCCCCCCCC(=O)N[C@H](CO)C[C@@H](O)c1ccccc1", "target": "ceramide transfer protein (CERT), human", "assay": "cellular CERT activity, HPLC-MS/MS lipidomics", "test system": "HeLa", "conditions": "1 µM, 24 h, normalised to cell number", "quantity": "LacCer 24:1 amount", "result": "8740 pmol/sample and 7180 pmol/sample and 7710 pmol/sample"}
{"SMILES": "CC(=O)NCCCN(C)CCCNc1cccc2c1C(=O)c1cccc(NCCCN(C)CCCNC(C)=O)c1C2=O", "target": "double-stranded DNA", "assay": "DNA thermal stabilisation, CD melting", "conditions": "4.5 µM, pH 7.4, with: 1.5 µM DNA, 100 mM KCl", "quantity": "ΔTm", "result": "< 0.5 °C"}
{"SMILES": "O=C(Nc1cc(OCCN2CCCC2)c2ccccc2n1)c1cccc(C(=O)Nc2cc(OCCN3CCCC3)c3ccccc3n2)n1", "target": "double-stranded DNA", "assay": "FRET melting", "conditions": "1 µM, pH 7.4, 60 mM potassium, with: oligonucleotide 200 nM", "quantity": "delta Tm", "result": "0 ± 0.1 K"}
{"SMILES": "C[n+]1cc(/C=N/NC(=O)c2cccc(C(=O)N/N=C/c3cc4ccccc4[n+](C)c3)c2)cc2ccccc21", "target": "myc22 MYC G4-DNA parallel", "assay": "FRET melting", "conditions": "1 µM, K1 buffer, DNA 0.2 µM, with: ds26 10 µM", "quantity": "ΔTm", "result": "10.5 ± 0.3 °C"}
{"SMILES": "NCCOc1cc(NC(=O)c2cc(OCc3cn([C@H]4O[C@@H](CO)[C@H](O)[C@@H](O)[C@@H]4O)nn3)cc(C(=O)Nc3cc(OCCN)c4ccccc4n3)n2)nc2ccccc12", "target": "double-stranded DNA", "assay": "FRET melting", "conditions": "1 µM, pH 7.4, 60 mM potassium, with: oligonucleotide 200 nM", "quantity": "delta Tm", "result": "0 ± 0.2 K"}
{"SMILES": "C[n+]1ccc(/C=N/NC(=O)c2cc(C(=O)N/N=C/c3cc[n+](C)c4ccccc34)ncn2)c2ccccc21", "target": "myc22 MYC G4-DNA parallel", "assay": "FRET melting", "conditions": "1 µM, K1 buffer, DNA 0.2 µM, with: ds26 10 µM", "quantity": "ΔTm", "result": "3.2 ± 0.4 °C"}
{"SMILES": "Fc1ccc(Nc2nc(NC3CCCCC3)c3ccccc3n2)cc1F", "target": "β2AR/β1AR TM5 chimera", "assay": "β-arrestin2 recruitment, antagonist, BRET", "conditions": "with: isoprenaline 1 µM", "quantity": "pIC50", "result": 6.7}
{"SMILES": "O=C(N/N=C/c1ccc2c(ccc[n+]2Cc2ccccc2)c1)c1cncc(C(=O)N/N=C/c2ccc3c(ccc[n+]3Cc3ccccc3)c2)n1", "target": "myc22 MYC G4-DNA parallel", "assay": "FRET melting", "conditions": "1 µM, K1 buffer, DNA 0.2 µM", "quantity": "ΔTm", "result": "19.4 ± 0.4 °C"}
{"SMILES": "Fc1ccc(Nc2nc(NC3CCCCC3)c3cc(C(F)(F)F)ccc3n2)cc1F", "target": "β2AR/β1AR TM5 chimera", "assay": "β-arrestin2 recruitment, antagonist, BRET", "how to read": "relative to: isoprenaline maximal response", "quantity": "maximal inhibition", "result": "4%"}
{"SMILES": "O=C(N/N=C/c1ccc(C[n+]2ccccc2)cc1)C(=O)N/N=C/c1ccc(C[n+]2ccccc2)cc1", "target": "myc22 MYC G4-DNA parallel", "assay": "FRET melting", "conditions": "1 µM, K1 buffer, DNA 0.2 µM", "quantity": "ΔTm", "result": "3.7 ± 0.7 °C"}
{"SMILES": "CC(C)(O)c1ccn2c(-c3ccc(F)c(-c4ccc(F)cc4C#N)c3)cnc2c1F", "target": "GABAA receptor α1 G251D human", "assay": "co-immunoprecipitation, refers to: γ2 subunit", "test system": "HEK-293T", "conditions": "5 µM, 24 h, with: hispidulin 10 µM", "quantity": "protein interaction", "result": "increased"}
{"SMILES": "CC(C)(C)c1ccc([C@H](O)C[C@H](CO)NC(=O)CCCCCOc2ccc3ccccc3c2)cc1", "target": "ceramide transfer protein (CERT), human", "assay": "cellular CERT activity, HPLC-MS/MS lipidomics", "test system": "HeLa", "conditions": "1 µM, 24 h", "quantity": "SM/ceramide ratio C16", "result": "23 ,1"}
{"SMILES": "C[n+]1cc(/C=N/NC(=O)N/N=C/c2cc3ccccc3[n+](C)c2)cc2ccccc21", "target": "myc22 MYC G4-DNA parallel", "assay": "FRET melting", "conditions": "1 µM, K1 buffer, DNA 0.2 µM", "quantity": "ΔTm", "result": "5.3 ± 0.4 °C"}
{"note": "For quick reference, copied from above:"}
{"SMILES": "Cn1ccc2cc(-n3c(=O)[nH]c4sc5c(c4c3=O)CCCC5)ccc21", "target": "rat central GABAA receptor", "assay": "radioligand binding", "conditions": "10 µM, with: muscimol", "quantity": "inhibition", "result": "1%"}
{"SMILES": "CC(C)(C)c1ccc([C@H](O)C[C@H](CO)NC(=O)CCCCCOc2ccc3ccccc3c2)cc1", "target": "ceramide transfer protein (CERT), human", "assay": "cellular CERT activity, HPLC-MS/MS lipidomics", "test system": "HeLa", "conditions": "1 µM, 24 h", "quantity": "SM/ceramide ratio C16", "result": "23 ,1"}
{"SMILES": "c1ccc(-c2n[nH]cc2-c2ccnc3ccccc23)nc1", "target": "KIC1 (Candida albicans)", "assay": "kinase binding, MIB/MS competition", "test system": "Candida albicans lysate", "conditions": "10 µM", "how to read": "relative to: DMSO", "quantity": "log2 fold change", "result": 0.1}
{"SMILES": "CN1CCCNC(=O)c2cccc(c2)C(=O)NCCCN(C)CCCNc2cccc3c2C(=O)c2cccc(c2C3=O)NCCC1", "target": "double-stranded DNA", "assay": "DNA thermal stabilisation, CD melting", "conditions": "4.5 µM, pH 7.4, with: 1.5 µM DNA, 100 mM KCl", "quantity": "ΔTm", "result": "< 0.5 °C"}
